# Measurements pooled from the literature.
# Each line is one published result; not all experiments were run side by side. ± marks the error that the study gave.
Structure (SMILES),test,system,setting,how to read,quantity,value
O=C(OCc1cccc(O)c1O)c1ccc(O)c(CO)c1,,mice,"intraperitoneal, 5 mg/kg/day, 14 days",,toxicity,not toxic
C#CCN(CCCNC(=O)CCCCC[N+]1=C(/C=C/C2=C(Cl)C(=C/C=C3\N(CCCCCC(=O)[O-])c4ccccc4C3(C)C)/CCC2)C(C)(C)c2ccccc21)CCCOc1ccc(Cl)cc1Cl,,processed mouse plasma,"1 µg/mL nominal, 4 h, in autosampler",,concentration,1000 ± 90 ng/mL
CN(C(=O)Cn1c(=O)oc2ccc(-c3ccc(OCC[18F])cc3)cc21)c1ccccc1,,"ischemic Sprague-Dawley rats, brain","intravenous, 10 MBq radiolabelled, 60 min",,intact parent fraction,76.4 ± 2.1%
NC12CNCCNCC(NCc3ccc(CNC(=O)CCCC(=O)NCc4ccc(-c5nncnn5)cc4)cc3)(CNCCNC1)CNCCNC2.[64Cu+2],OLINDA dosimetry,testes,"48 h pretargeting interval, together with: huA33-TCO pretargeting",,mean absorbed dose,0.0322 rad/mCi
[2H]C([2H])([2H])Oc1cc2c(cc1OC([2H])([2H])[2H])[C@H]1CC(=O)[C@H](CC(C)C)CN1CC2,measured: nausea,human,"oral, 25 mg",,subjects with adverse event,9.5%
COc1cc(NC(C)=O)c2c(c1O)-c1c(OC)c(OC)cc3c1C(C2)N(C)CC3 (stereo not drawn),,rat lung homogenate,"100 µg/mL, time not given, three freeze-thaw cycles",,remaining compound,98.5 ± 4.2%
[2H]C([2H])([2H])NC(=O)c1ccc(N2C(=S)N(c3ccc(C#N)c(C(F)(F)F)c3)C(=O)C2(C)C)cc1F,,"human, male","oral, 80 mg, single dose, fasted",,Vd/F,40.3 ± 7.93 L
O=C([O-])CN1CCN(CC(=O)[O-])CCN(CC(=O)c2ccc(-c3ccc(OCC(=O)O)cc3)cc2)CCN(CC(=O)[O-])CC1.[Gd+3],,,"concentration not given, TSAP isomer",,activation enthalpy of water exchange,10 kcal/mol
NC(=O)/C=C/c1cccc(S(=O)(=O)Nc2ccccc2)c1,,"human, severe liver dysfunction, plasma","intravenous, 400 mg/m^2 belinostat, cycle 1 day -7, geometric mean",baseline: metabolite over belinostat,AUC(0-inf) metabolic ratio,1.13
NC(=O)[C@H](Cc1ccccc1)N[11C](=O)OCc1ccccc1,,"male Wistar rat, brain and spinal cord","intravenous, 27.3 MBq",,intact compound,> 95%
CC/C=C\C/C=C\C/C=C\C/C=C\C/C=C\CCCCOC(CC)C(=O)O (stereo not drawn),[14C] label,"male Wistar rat, kidney cortex","oral, 100 mg/kg, 4 h",,radioactivity concentration,92.8 µg equiv/g
O=C(Cc1ccc(OCc2ccccc2)cc1)NC1(C(=O)O)CCN(C(=O)c2ccc(-c3cccc(Cl)c3)cc2)CC1,,BALB/c mice female,"intraperitoneal, 20 mg/kg",,AUC(0-inf),6610 ng·h/mL
COc1cccc([O-])c1C=NCCCN(C)CCN(C)CCCN=Cc1c([O-])cccc1OC.[67Ga+3],,rat,"intravenous, 2 h",baseline: heart over lung,tissue uptake ratio,2.4 ± 0.3
CC(=O)N[C@H](CCCCN)C(=O)N[C@H](CC(C)C)C(=O)N[C@H](CCCCN)C(=O)N[C@H](CO)C(=O)N[C@H](CC(C)C)C(=O)N[C@H](CC(C)C)C(=O)N[C@H](CCCCN)C(=O)N[C@@H](C(=O)N[C@H](CC(C)C)C(=O)N[C@H](CO)C(=O)N[C@H](CCCCN)C(=O)N[C@H](C)C(=O)N[C@H](CCCCN)C(=O)N[C@H](CCCCN)C(=O)N[C@H](CCCCN)C(=O)N[C@H](CC(C)C)C(=O)N[C@H](CC(C)C)C(=O)N[C@H](CCCCN)C(=O)N[C@@H](C(=O)N[C@H](C)C(=O)N[C@H](CC(C)C)C(=O)N[C@H](CCCCN)C(=O)N[C@H](C)C(=O)N[C@H](CC(C)C)C(=O)N[C@H](CO)C(=O)N[C@H](CCCCN)C(N)=O)[C@H](C)O)[C@H](C)O,circular dichroism,50% trifluoroethanol,5 °C,,helical content,100%
NCCCC[C@H](NC(=O)[C@@H]1CCCN1C(=O)[C@@H]1CSSC[C@H](NC(=O)CNC(=O)CNC(=O)CN)C(=O)N[C@@H](Cc2ccc(O)cc2)C(=O)N[C@@H](Cc2ccccc2)C(=O)N[C@@H](CCC(N)=O)C(=O)N[C@@H](CC(N)=O)C(=O)N1)C(=O)NCC(N)=O,,male Sprague Dawley rats,"iv, single dose",,adverse effect level (ataxia),1.5 mg/kg
COc1ccc(-c2csc(N/N=C(\C)c3cc(O)cc(O)c3)n2)cc1,LC-MS/MS,rat plasma,"3.75 ng/mL, 5 h, 25 °C, bench-top storage",,concentration after storage,4.09 ng/mL
COc1cc([O-])c(C=NCCCN(C)CCN(C)CCCN=Cc2c([O-])cc(OC)cc2OC)c(OC)c1.[67Ga+3],,rat,"intravenous, 2 h",baseline: heart over blood,tissue uptake ratio,6.4 ± 1.3
O=c1[nH]c(=O)n(C2OC(CO)C(O)C2O)cc1-n1nnc2c1CCC1C(CO)C1CC2 (mixture of isomers),frequency-domain fluorometry,methanol,,,fluorescence lifetime τ3,5.7 ns
CC(C)[C@H](NC(=O)[C@@H]1CCCN1C(=O)[C@H](CCCNC(=N)N)NC(=O)[C@H](CS)NC(=O)[C@H](Cc1c[nH]c2ccccc12)NC(=O)[C@H](CCCNC(=N)N)NC(=O)[C@@H](Cc1ccccc1)NC(=O)[C@H](Cc1c[nH]cn1)NC(=O)[C@H](CCC(=O)O)NC(=O)[C@H](CS)NC(=O)[C@H](CS)NC(=O)CNC(=O)[C@@H]1CC(=O)N[C@@H](CCCNC(=N)N)C(=O)NCC(=O)N[C@@H](CC(=O)O)C(=O)N[C@H](Cc2ccc(O)cc2)C(=O)N1)C(N)=O [technetium-99m labelled],,"C57 mouse, female, B16/F1 melanoma","intravenous, 0.037 MBq, 0.5 h",baseline: tumour over liver,tumour to tissue ratio,2.74
CCc1c2c(nc3ccc(O)cc13)-c1cc3c(c(=O)n1C2)COC(=O)[C@]3(O)CC,,"human patients, plasma","intravenous, 42 mg/m^2 of parent drug",,AUC(0-inf),570 ng·h/mL
CC(=O)N[C@H](CC(=O)O)C(=O)N[C@H](Cc1c[nH]c2ccccc12)C(=O)N[C@H](Cc1ccccc1)C(=O)N[C@H](CCCCN)C(=O)N[C@H](C)C(=O)N[C@H](Cc1ccccc1)C(=O)N[C@H](Cc1ccc(O)cc1)C(=O)N[C@H](CC(=O)O)C(=O)N[C@H](CCCCN)C(=O)N[C@@H](C(=O)N[C@H](C)C(=O)N[C@H](CCC(=O)O)C(=O)N[C@H](CCCCN)C(=O)N[C@H](Cc1ccccc1)C(=O)N[C@H](CCCCN)C(=O)N[C@H](CCC(=O)O)C(=O)N[C@H](C)C(=O)N[C@H](Cc1ccccc1)C(N)=O)C(C)C,,"statin-treated high-risk CHD men, plasma","oral, 100 mg daily, day 13, 0 to 8 h, mean, undetectable set to 0",,Cmax,2.27 ng/mL
CC(C)(O)c1ncc([S@](N)(=O)=NC(=O)Nc2c3c(cc4c2CCC4)CCC3)s1,,"healthy human volunteers, plasma","oral, 10 mg once daily, day 14, capsule formulation",,half-life,9.58 h
Cn1c(=O)oc2ccc(-c3ccc(CC(C#N)NC(=O)C4CNCCCO4)c(F)c3)cc21 (stereo not drawn),,human,"40 mg, single dose, fed",,tlag median,0 h
COc1cc(/C=C/C(=O)N2CCc3ccccc3C2)ccc1O[11CH3],PET-CT imaging,"C57BL/6 mouse, male, heart","intravenous, 5 min",,uptake,14.2 ± 0.18 %ID/cc
COc1ccc(/N=N/c2ccc(OC[C@@H](O)CNC(C)C)cc2)cc1,UV/Vis spectroscopy,Epac buffer with 0.5 % DMSO,"50 µM, 28 °C, together with: 365 nm light for 3 min",,thermal half-life of cis isomer,7.1 h
C=CC(=O)Nc1cc(Nc2nccc(-c3cn(C4CC4)c4ccccc34)n2)c(OC)cc1N(C)CCNC,"radio-HPLC, co-eluting peaks pooled","human male, urine","oral, 110 mg, 0 to 96 h, sample holds 4.16% dose",baseline: dose,excreted amount,1.2%
N=C(N)NCCC[C@@H]1NC(=O)[C@H](Cc2c[nH]c3ccccc23)NC(=O)[C@@H](CC2CCCCC2)NC(=O)[C@@H]2CCCN2C(=O)[C@@H](NC(=O)CCc2ccccc2)CCCNC1=O,,"C57BL/6J mice, urine","intravenous, 1 mg/kg, 4 h",,amount excreted unchanged,20.7 ± 3.8 ng
CC(C)C[C@@H](NC(=O)[C@H](NC(=O)[C@H]1CCCN1)[C@H](C)O)C(=O)N[C@H](Cc1c[nH]cn1)C(=O)N[C@@H](C(=O)N[C@H](Cc1c[nH]cn1)C(=O)N[C@H](CC(N)=O)C(=O)N[C@H](CCCNC(=N)N)C(=O)N[C@H](CCCNC(=N)N)C(=O)N[C@H](CCCNC(=N)N)C(=O)N[C@H](CCCNC(=N)N)C(=O)N[C@H](CCCNC(=N)N)C(N)=O)[C@H](C)O,,"beagle dog, plasma","intravenous, 3 mg/kg, single dose",,clearance,1.2 mL/min/kg
C#CCOc1ccc(/C=C2\SC(=O)N(CC(=O)NCc3ccccc3)C2=O)cc1,inverse Kirkwood-Buff integrals,binary solvent mixture,"298.15 K, mole fraction x1 0.65",,"Kirkwood-Buff integral G1,3",-260 cm³/mol
CC1(C)COc2ccc(F)cc2CN2c3nc4c(cnn4cc3OC[C@H]2C(F)F)C(=O)N1,,"SCID/beige mice, tumour-bearing, plasma","oral, 5 mg/kg, 12 h",,unbound plasma concentration,8 nM
Brc1ccc(Nc2nc(NN=Cc3c[nH]c4ccccc34)nc(N3CCOCC3)n2)cc1,,rat liver microsomes,in vivo extrapolated,,hepatic clearance,8.55 mL/min
COCCOCCOCCOCCOCCOCCOCCOCCC(=O)NCCCc1cc2cc3nc(cc4[nH]c(cc5nc(c(OC)c1[nH]2)C(=O)C5(C)C)cc4CCc1ccc(C(=O)O)cc1)CC3(C)C,,DMF,room temperature,,kic^−1,10 ns
COc1cc(N(C)CCN(C)C)c(NC(=O)CCSCC(N)C(=O)O)cc1Nc1nccc(-c2cn(C3CC3)c3ccccc23)n1 (stereo not drawn),radio-HPLC,"human, feces","0 to 48 h, sample holds 45.32% dose",baseline: dose,excreted amount,0.74%
NC[C@@H](C(=O)Nc1ccc(-c2cn[nH]c2)cc1)c1ccccc1,OECD 405 eye irritation,"New Zealand White rabbit, eye","topical, 0.1%, 96 h (day 5), scale 0 to 4",direction not given,chemosis score,0
Cc1ccc(OCC(=O)N(Cc2cccs2)c2ccn[nH]2)cc1,,"male Sprague-Dawley rat, plasma","oral, 30 mg/kg, single dose",,half-life,0.89 h
CC(C)c1cnc(-c2cc(Cl)ccc2F)cc1Nc1ccncc1C(=O)NC(CO)CO,"monotherapy, measured: diarrhoea",human patients,"oral, dose not given, grade 1, phase I A",,patients with treatment-related adverse event,7.1%
COc1ccnc(C[S+]([O-])c2nc3cc(-n4cccc4)ccc3[nH]2)c1C (stereo not drawn),,"male Sprague Dawley rats, plasma","oral, 5 mg/kg ilaprazole racemate",baseline: compound over R-ilaprazole,Vz/F ratio,0.56
[11CH3]N1CCN(CCCOc2ccc(=O)n(-c3ccc(Cl)c(Cl)c3)n2)CC1,PET-CT,"BALB/c mouse male, kidney","intravenous, dose not given, 5 min",,uptake,8.87 ± 1.16 %ID/cc
NCC(=O)N1CCC[C@H]1C(=O)N1C[C@H](O)C[C@H]1C(=O)O,potentiometric titration,,"37 °C, MA3 complex, together with: Fe(III)",,log beta,28.8
COc1cc2ncnc(Oc3ccc(Nc4nccc5[nH]cc(-c6ccc(F)cc6)c(=O)c45)cc3F)c2cc1OC,,"Sprague-Dawley rat, male, plasma","oral, 10 mg/kg",,CL,0.333 mL/min/kg
O=C(CCc1ccc(CNC(C(=O)O)C2CCCCC2)cn1)NO (stereo not drawn),,"human, plasma","oral, 40 mg once daily, day 7, geometric mean",,AUC(tau),381 ng·h/mL
Cc1ccc(-c2ccc(-c3cc4sccc4o3)cn2)nc1,TCSPC,"water, HEPES 100 mM",pH 7.4,,fluorescence lifetime,2.31 ns

# Some of these lines once more:
Structure (SMILES),test,system,setting,how to read,quantity,value
CC/C=C\C/C=C\C/C=C\C/C=C\C/C=C\CCCCOC(CC)C(=O)O (stereo not drawn),[14C] label,"male Wistar rat, kidney cortex","oral, 100 mg/kg, 4 h",,radioactivity concentration,92.8 µg equiv/g
O=C(Cc1ccc(OCc2ccccc2)cc1)NC1(C(=O)O)CCN(C(=O)c2ccc(-c3cccc(Cl)c3)cc2)CC1,,BALB/c mice female,"intraperitoneal, 20 mg/kg",,AUC(0-inf),6610 ng·h/mL
COc1cccc([O-])c1C=NCCCN(C)CCN(C)CCCN=Cc1c([O-])cccc1OC.[67Ga+3],,rat,"intravenous, 2 h",baseline: heart over lung,tissue uptake ratio,2.4 ± 0.3
CC(=O)N[C@H](CCCCN)C(=O)N[C@H](CC(C)C)C(=O)N[C@H](CCCCN)C(=O)N[C@H](CO)C(=O)N[C@H](CC(C)C)C(=O)N[C@H](CC(C)C)C(=O)N[C@H](CCCCN)C(=O)N[C@@H](C(=O)N[C@H](CC(C)C)C(=O)N[C@H](CO)C(=O)N[C@H](CCCCN)C(=O)N[C@H](C)C(=O)N[C@H](CCCCN)C(=O)N[C@H](CCCCN)C(=O)N[C@H](CCCCN)C(=O)N[C@H](CC(C)C)C(=O)N[C@H](CC(C)C)C(=O)N[C@H](CCCCN)C(=O)N[C@@H](C(=O)N[C@H](C)C(=O)N[C@H](CC(C)C)C(=O)N[C@H](CCCCN)C(=O)N[C@H](C)C(=O)N[C@H](CC(C)C)C(=O)N[C@H](CO)C(=O)N[C@H](CCCCN)C(N)=O)[C@H](C)O)[C@H](C)O,circular dichroism,50% trifluoroethanol,5 °C,,helical content,100%
NCCCC[C@H](NC(=O)[C@@H]1CCCN1C(=O)[C@@H]1CSSC[C@H](NC(=O)CNC(=O)CNC(=O)CN)C(=O)N[C@@H](Cc2ccc(O)cc2)C(=O)N[C@@H](Cc2ccccc2)C(=O)N[C@@H](CCC(N)=O)C(=O)N[C@@H](CC(N)=O)C(=O)N1)C(=O)NCC(N)=O,,male Sprague Dawley rats,"iv, single dose",,adverse effect level (ataxia),1.5 mg/kg
COc1ccc(-c2csc(N/N=C(\C)c3cc(O)cc(O)c3)n2)cc1,LC-MS/MS,rat plasma,"3.75 ng/mL, 5 h, 25 °C, bench-top storage",,concentration after storage,4.09 ng/mL
